Measured values of several laboratories.
Protocols differ between the studies behind these lines. ± marks the error that the study gave.
BCHE: Cholinesterase (BCHE, Homo sapiens, UniProt P06276)
PSMB6: Proteasome subunit beta type-6 (PSMB6, Homo sapiens, UniProt P28072)

Protein sequences, listed by entry. Tags and fused reporters are not part of them. Lines headed by an entry give the natural chain unless they say otherwise; changes in a name come on top. Residues count along the entry.
UniProt P06276, whole entry, looked up: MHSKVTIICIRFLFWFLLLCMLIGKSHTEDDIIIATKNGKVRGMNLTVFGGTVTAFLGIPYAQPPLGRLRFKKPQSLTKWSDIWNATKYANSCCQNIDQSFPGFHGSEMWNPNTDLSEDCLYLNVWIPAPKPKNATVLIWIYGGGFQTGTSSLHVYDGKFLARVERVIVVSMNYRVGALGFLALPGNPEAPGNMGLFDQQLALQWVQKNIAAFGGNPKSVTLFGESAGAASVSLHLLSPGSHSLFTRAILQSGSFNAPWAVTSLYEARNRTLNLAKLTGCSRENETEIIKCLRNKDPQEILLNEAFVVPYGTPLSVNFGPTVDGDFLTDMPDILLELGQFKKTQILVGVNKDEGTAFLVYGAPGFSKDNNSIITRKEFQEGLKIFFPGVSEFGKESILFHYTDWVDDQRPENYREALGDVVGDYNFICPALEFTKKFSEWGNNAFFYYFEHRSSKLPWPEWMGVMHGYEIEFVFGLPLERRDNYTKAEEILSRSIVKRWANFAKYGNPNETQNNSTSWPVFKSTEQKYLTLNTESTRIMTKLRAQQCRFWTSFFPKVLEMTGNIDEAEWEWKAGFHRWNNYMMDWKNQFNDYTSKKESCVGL
UniProt P28072, whole entry, looked up: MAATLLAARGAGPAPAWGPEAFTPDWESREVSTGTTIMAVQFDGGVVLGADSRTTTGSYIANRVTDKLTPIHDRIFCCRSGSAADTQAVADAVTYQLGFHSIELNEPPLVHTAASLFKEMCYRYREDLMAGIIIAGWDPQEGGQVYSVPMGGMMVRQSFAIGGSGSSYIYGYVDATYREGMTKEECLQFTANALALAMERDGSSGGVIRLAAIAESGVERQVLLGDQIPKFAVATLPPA
UniProt P10275, whole entry: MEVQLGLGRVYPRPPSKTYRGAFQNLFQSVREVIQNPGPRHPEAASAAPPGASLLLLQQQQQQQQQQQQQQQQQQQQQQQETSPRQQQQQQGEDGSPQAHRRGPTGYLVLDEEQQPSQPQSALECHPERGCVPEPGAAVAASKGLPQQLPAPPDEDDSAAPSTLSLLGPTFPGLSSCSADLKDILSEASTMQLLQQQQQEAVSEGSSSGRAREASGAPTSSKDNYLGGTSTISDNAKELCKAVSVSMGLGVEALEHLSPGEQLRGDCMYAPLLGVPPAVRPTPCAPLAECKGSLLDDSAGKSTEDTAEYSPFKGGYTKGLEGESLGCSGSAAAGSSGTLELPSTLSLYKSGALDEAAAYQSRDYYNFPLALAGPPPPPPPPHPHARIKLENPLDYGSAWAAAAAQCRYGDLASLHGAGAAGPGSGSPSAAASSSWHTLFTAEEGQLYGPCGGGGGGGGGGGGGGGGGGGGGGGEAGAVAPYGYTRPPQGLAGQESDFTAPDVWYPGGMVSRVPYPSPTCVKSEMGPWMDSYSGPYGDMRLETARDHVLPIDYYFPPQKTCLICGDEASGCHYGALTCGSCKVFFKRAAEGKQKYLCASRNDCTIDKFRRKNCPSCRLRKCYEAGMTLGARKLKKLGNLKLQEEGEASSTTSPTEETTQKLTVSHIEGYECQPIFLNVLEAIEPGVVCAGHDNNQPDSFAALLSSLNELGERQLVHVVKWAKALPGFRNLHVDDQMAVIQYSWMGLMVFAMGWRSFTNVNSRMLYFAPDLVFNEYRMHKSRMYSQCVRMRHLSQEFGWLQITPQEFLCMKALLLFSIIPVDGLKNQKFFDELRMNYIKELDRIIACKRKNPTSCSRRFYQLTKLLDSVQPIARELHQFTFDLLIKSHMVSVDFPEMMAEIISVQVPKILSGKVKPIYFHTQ
UniProt P08913, whole entry: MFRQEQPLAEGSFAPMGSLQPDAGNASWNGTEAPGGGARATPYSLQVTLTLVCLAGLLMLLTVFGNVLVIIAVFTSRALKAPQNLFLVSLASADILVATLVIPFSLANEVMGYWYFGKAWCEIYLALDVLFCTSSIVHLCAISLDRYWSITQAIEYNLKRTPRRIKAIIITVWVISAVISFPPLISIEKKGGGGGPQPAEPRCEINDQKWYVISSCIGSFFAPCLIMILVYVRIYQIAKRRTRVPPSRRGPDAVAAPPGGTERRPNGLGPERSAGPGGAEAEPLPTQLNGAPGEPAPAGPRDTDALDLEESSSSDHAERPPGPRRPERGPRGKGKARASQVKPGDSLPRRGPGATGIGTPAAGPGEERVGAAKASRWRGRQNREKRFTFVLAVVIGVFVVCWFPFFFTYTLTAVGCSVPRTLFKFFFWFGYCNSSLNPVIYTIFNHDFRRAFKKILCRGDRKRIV
UniProt Q96S53, whole entry: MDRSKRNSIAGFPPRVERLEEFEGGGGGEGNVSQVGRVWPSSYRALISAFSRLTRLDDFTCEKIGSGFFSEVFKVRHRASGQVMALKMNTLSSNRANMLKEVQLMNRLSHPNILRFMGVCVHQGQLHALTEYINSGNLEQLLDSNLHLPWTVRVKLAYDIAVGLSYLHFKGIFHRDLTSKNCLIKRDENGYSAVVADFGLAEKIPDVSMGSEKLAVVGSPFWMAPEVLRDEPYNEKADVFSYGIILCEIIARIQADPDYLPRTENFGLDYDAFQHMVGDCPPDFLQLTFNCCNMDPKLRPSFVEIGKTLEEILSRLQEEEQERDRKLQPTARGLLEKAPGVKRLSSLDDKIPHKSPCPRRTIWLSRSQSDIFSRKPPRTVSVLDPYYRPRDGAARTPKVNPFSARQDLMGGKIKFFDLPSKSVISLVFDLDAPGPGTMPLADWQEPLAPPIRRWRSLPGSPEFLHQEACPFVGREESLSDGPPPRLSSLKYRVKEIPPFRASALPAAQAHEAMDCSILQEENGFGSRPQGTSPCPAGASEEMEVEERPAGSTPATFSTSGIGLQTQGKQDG
UniProt P29320, 29-207 limits assumed: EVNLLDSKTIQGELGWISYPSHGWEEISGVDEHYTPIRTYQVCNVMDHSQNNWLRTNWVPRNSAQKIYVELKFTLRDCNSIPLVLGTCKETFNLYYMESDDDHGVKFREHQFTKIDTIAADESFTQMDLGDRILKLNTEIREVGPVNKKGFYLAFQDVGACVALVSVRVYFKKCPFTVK
UniProt O14578, whole entry: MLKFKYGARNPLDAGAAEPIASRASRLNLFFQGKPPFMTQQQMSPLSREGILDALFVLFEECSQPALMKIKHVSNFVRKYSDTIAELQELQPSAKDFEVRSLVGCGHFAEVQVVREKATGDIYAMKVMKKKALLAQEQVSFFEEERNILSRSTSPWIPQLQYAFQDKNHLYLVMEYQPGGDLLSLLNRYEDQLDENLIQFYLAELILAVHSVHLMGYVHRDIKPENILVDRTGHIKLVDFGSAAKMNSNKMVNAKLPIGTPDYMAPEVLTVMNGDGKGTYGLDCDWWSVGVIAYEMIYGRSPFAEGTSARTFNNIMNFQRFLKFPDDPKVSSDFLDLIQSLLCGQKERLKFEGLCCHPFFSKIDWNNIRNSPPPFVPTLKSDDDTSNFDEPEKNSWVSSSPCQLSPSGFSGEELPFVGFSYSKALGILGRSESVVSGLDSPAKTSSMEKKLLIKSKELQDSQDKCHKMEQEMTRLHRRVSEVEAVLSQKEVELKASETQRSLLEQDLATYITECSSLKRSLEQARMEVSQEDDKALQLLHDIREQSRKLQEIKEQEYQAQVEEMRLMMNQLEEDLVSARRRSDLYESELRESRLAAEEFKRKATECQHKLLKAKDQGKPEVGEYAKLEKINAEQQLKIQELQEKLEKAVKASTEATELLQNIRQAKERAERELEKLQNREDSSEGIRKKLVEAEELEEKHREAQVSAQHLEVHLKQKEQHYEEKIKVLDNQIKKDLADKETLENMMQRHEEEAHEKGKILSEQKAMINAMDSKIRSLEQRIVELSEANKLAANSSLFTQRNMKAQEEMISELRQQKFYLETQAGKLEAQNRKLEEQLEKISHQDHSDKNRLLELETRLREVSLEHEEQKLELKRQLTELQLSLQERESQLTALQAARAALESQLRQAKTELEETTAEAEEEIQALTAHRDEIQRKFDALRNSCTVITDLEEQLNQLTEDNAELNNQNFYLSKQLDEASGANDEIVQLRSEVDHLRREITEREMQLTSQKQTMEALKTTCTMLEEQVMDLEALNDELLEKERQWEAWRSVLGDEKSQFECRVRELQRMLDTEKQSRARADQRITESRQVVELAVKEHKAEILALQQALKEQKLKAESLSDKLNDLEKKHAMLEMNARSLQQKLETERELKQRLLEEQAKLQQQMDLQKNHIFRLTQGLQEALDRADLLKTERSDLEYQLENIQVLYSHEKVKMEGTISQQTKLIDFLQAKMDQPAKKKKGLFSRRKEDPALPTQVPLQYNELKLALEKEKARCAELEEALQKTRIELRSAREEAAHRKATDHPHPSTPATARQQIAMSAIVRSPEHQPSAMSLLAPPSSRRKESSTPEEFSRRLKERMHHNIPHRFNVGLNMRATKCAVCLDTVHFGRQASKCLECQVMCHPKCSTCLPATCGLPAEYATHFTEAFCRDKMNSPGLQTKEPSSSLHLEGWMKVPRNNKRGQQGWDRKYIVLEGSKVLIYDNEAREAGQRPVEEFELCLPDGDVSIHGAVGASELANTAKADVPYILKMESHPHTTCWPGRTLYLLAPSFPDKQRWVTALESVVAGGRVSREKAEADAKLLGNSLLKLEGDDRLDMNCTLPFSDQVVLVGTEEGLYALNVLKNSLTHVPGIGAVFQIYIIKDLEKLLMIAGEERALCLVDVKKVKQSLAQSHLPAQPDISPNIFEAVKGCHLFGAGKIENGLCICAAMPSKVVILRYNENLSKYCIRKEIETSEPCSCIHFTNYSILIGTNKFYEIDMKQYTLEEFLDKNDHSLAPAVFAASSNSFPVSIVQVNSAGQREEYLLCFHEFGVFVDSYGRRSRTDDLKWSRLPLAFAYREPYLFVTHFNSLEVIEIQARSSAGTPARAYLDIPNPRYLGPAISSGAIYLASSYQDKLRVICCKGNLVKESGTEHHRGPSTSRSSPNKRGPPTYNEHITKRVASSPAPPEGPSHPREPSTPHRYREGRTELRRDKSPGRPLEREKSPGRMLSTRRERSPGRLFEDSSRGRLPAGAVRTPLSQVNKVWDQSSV
UniProt P14867, 28-456 limits assumed: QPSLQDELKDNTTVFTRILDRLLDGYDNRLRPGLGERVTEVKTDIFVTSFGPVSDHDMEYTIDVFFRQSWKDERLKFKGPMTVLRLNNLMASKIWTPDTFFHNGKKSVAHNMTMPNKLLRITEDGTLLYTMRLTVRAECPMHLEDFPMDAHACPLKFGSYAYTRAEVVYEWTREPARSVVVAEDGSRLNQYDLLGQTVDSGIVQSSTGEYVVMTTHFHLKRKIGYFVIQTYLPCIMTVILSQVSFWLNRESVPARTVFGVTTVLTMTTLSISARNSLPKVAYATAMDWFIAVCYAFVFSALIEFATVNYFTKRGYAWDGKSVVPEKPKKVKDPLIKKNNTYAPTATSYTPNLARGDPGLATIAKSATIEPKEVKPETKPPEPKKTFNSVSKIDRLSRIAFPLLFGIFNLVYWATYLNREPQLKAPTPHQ
UniProt Q05769, 18-604 limits assumed: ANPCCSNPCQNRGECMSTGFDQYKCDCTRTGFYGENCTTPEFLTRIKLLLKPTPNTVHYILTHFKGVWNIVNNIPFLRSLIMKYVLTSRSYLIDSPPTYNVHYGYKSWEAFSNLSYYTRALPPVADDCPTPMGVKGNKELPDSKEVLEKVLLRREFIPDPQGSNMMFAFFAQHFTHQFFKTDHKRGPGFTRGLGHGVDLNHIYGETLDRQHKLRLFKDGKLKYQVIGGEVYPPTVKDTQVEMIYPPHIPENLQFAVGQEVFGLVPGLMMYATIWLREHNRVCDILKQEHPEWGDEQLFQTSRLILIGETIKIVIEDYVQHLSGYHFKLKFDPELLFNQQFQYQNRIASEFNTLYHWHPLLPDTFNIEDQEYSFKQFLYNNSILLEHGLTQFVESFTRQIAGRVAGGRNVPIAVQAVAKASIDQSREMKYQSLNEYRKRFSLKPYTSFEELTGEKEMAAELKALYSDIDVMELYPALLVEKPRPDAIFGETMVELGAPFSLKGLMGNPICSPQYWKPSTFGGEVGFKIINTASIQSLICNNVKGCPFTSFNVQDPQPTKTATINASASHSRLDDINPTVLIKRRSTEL
UniProt O43175, whole entry R135A: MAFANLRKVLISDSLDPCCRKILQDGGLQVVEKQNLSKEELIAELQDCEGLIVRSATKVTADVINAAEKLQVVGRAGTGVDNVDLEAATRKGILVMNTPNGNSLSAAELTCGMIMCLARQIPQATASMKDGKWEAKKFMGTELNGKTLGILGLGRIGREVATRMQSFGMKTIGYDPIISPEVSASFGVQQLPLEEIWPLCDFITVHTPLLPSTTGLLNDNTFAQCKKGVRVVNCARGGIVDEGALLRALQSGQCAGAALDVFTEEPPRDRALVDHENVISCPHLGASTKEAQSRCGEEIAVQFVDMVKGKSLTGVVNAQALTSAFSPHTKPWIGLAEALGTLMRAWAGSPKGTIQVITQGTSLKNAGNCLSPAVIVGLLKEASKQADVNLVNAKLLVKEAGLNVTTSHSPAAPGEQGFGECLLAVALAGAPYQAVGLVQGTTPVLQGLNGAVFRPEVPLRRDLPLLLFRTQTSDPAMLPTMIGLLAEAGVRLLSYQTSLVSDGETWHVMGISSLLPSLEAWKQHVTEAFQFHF

CC1(C)S[C@@H]2CS[C@@H](CS)N2[C@H]1C(=O)O  k-2 (E*I breakdown) (VIM-2 (Escherichia coli, UniProt Q5U7L7, R205L); slow-binding inhibitor; Klebsiella pneumoniae; with: nitrocefin): 7e-10 ± 1e-05 s⁻¹
C[C@]12CCC(=O)C=C1CCC1C2CC[C@]2(C)C(n3cnc4ccccc43)=CCC12 (stereo partly drawn)  inhibition (Androgen receptor (AR, Homo sapiens, UniProt P10275); reporter gene, antagonist; LAPC4; 10 µM, 18 h, with: DHT 10 nM): 90 to 99%
O=C(NOCC1CC1)c1cc(Br)c(F)c(F)c1Nc1ccc(I)cc1Cl  efficacy (BCHE; enzyme activity): -72.6 ± 13.3%
Fc1cccc2c(Nc3ccncc3)cccc12  receptor internalization (ADRA2A (Homo sapiens, UniProt P08913); plasma membrane loss, BRET rGFP-CAAX biosensor): no effect
Cc1ccc(S(=O)(=O)N(C)CC(=O)N(Cc2ccc(C3CCCCC3)cc2)c2ccc(C(=O)O)c(O)c2)cc1  EGFR association (STAT3 (Homo sapiens, UniProt P40763); co-immunoprecipitation; PANC-1 and MDA-MB-231; concentration not given): decreased
CCN1CCN(Cc2ccc(NC(=O)c3ccc(C)c(/C=C/c4cnc5[nH]ccc5c4OC)c3)cc2C(F)(F)F)CC1  log2 fold change (TESK2 (Homo sapiens, UniProt Q96S53); inhibitor, cell-based kinome screen; human cells; 5 µM; reference: vehicle): 0.327
COc1cc(CC(=O)NCC(NC(=O)C(CCCNC(=O)c2cccc(I)c2)NC(=O)C(Cc2ccc(C(F)(F)P(=O)(O)O)cc2)NC(=O)c2ccc(C)c(Br)c2)C(N)=O)ccc1O (stereo not drawn)  selectivity ratio (PTPN2 (Homo sapiens, UniProt P17706); pNPP hydrolysis; reference: Ki PTP-MEG2 over PTPN2): > 18 fold
CC(CCC(=O)N(CCNC(=O)C(F)(F)F)CC(=O)O)[C@H]1CC[C@H]2[C@@H]3[C@H](O)C[C@@H]4C[C@H](O)CC[C@]4(C)[C@H]3C[C@H](O)[C@]12C (stereo partly drawn)  Km (SLC10A1 (Homo sapiens, UniProt Q14973); substrate): 2.19 ± 0.63 µM
CCN(CC)c1ccc2c(O)c(C=Nc3ccc(CC(=O)NNc4c5c(nc6ccccc46)CCCC5)cc3)c(=O)oc2c1  efficacy (BCHE; enzyme activity): -99.3 ± 5.35%
Cc1ccc(-c2nsc(=O)o2)s1  kobs/[I] (PSMB6; inactivation; human PA28-activated proteasome): 2.35 M⁻¹ s⁻¹
Cc1ccc(S(=O)(=O)Nc2ccccc2N2CCCCC2)s1  IC50 (ACHE (Homo sapiens, UniProt P22303); enzyme activity, inhibitor): inactive
COc1ccc2[nH]cc(CCNC(=O)[C@H](Cc3ccncc3)NC(=O)[C@H](Cc3ccc(Cl)cc3)NC(=O)[C@H](Cc3c[nH]c4ccc(O)cc34)NC(=O)CCCN)c2c1  ΔH (EPHA3 (Homo sapiens, UniProt P29320); binding, isothermal titration calorimetry): -1.54 ± 0.3 kcal/mol
CC#C/C(=N\OC[C@H]1COCCN1)c1ccc2ncnc(Nc3ccc(OCc4cccc(F)c4)c(Cl)c3)c2c1  inhibition (CIT (Homo sapiens, UniProt O14578); kinase activity; 10 µM): -3.7%
CCN(CC)C(=O)Oc1ccc(C(=O)Nc2cccc3cc[nH]c23)cc1  current response (GABA-A receptor; alpha-1/beta-2/gamma-2 (Homo sapiens, UniProt P14867+P18507+P47870); modulator, two-electrode voltage clamp; Xenopus oocytes; 20 µM, with: 20 µM GABA; reference: agonist alone): 107 ± 2.8%
O=c1oc(-c2ccccn2)ns1  kobs/[I] (PSMB5 (Homo sapiens, UniProt P28074); inactivation; human PA28-activated proteasome): 0.2 M⁻¹ s⁻¹
COc1ccc(OC[C@H]2c3cccn3CC(=O)N2Cc2cccc(F)c2)cc1  charge transfer (Glutamate receptor ionotropic, NMDA 2C, with GluN1 (Rattus norvegicus, UniProt Q00961); ion current, whole-cell patch clamp; HEK293T cells, transfected; 10 µM, with: glutamate for 10 ms; reference: baseline): 6.5 ± 2.5 fold
Cc1cccc(-c2nsc(=O)o2)c1  kobs/[I] (PSMB6; inactivation; human PA28-activated proteasome): 0.78 M⁻¹ s⁻¹
COc1ccc2c(c1)c(CC(=O)O[C@@H](C(=O)O[C@H]1C[C@@]3(O)[C@@H](OC(=O)c4ccccc4)[C@@H]4[C@]5(OC(C)=O)CO[C@@H]5C[C@H](O)[C@@]4(C)C(=O)[C@H](OC(C)=O)C(=C1C)C3(C)C)[C@@H](NC(=O)c1ccccc1)c1ccccc1)c(C)n2C(=O)c1ccc(Cl)cc1  inhibition (Ptgs2 (Mus musculus, UniProt Q05769); enzyme activity, inhibitor; purified enzyme; concentration not given): no inhibition
COc1ccc(C(=O)CSC#N)cc1OC  inhibition (ALDH2 (Homo sapiens, UniProt P05091); enzyme activity, inhibitor; 20 µM): ≥ 50%
Cc1ccc(-c2nsc(=O)o2)cc1  kobs/[I] (PSMB6; inactivation; human PA28-activated proteasome): 1.36 M⁻¹ s⁻¹
O=C(N/N=C/c1cc([N+](=O)[O-])ccc1O)c1ccc(O)cc1O  maximum inhibition (PHGDH (Homo sapiens, UniProt O43175, R135A); enzyme activity, inhibitor; R134A mutant): 49%
